Experimental data gathered from unrelated publications.
Parts stem from different laboratories: compare values within a part only. Positions count from the first letter of the parent shown.

Sample 1
Target: CCNB1, cyclin fold, Cln2 fusion (human)
Method: yeast growth competition, sequencing
Medium: yeast
Setting: weak parent motif
Baseline: not given
Reading: higher = stronger binding
Starting sequence: SLBP docking peptide (human); ARYKRKLLINDFG
Change	normalised enrichment score
A1K	-0.0351
D11T	0.909
R5A L7A	0.295
L7A	-0.151
D11S	0.559
A1S	0.627

Sample 2
Target: Sal-like protein 4, full length isoform A (SALL4, Homo sapiens, UniProt Q9UJQ4, residues 1-1053)
Chain of UniProt Q9UJQ4 (whole entry, looked up): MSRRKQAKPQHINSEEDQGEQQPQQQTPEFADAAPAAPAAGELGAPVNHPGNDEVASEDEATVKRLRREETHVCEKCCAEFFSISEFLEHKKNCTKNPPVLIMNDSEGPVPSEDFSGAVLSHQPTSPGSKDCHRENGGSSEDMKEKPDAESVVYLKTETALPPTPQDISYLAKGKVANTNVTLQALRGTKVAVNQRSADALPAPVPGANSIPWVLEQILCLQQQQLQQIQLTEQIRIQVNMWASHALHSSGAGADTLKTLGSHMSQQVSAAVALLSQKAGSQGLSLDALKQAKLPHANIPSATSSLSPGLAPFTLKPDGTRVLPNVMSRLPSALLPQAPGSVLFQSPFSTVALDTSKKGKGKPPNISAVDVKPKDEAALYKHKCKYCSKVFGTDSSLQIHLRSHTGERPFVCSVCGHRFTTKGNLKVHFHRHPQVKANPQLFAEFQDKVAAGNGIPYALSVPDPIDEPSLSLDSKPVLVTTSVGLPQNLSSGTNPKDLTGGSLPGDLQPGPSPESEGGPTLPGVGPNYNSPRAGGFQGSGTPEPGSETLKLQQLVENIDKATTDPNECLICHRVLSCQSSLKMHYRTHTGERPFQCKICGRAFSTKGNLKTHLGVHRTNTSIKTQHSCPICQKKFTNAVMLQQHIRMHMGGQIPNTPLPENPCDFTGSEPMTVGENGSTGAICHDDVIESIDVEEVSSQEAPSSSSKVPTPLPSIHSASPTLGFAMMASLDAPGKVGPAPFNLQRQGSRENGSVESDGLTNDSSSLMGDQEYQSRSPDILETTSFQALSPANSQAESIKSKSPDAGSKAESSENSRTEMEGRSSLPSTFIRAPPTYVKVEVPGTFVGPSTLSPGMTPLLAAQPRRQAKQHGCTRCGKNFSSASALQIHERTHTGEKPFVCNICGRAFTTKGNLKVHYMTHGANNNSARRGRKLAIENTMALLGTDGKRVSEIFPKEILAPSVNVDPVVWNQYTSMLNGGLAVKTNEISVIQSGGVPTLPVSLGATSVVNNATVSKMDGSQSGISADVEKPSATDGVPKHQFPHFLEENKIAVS
Method: universal PBM
Form: double-stranded DNA, one strand shown
Medium: in vitro
Tested at: 600 nM
Setting: 8-mer, flanks averaged, mean of replicates
Reading: higher = stronger binding
Oligonucleotide	E-score
AACACGAT	0.122
CGCTAACA	0.0236
AGATTTAT	0.308
GCATCAGC	-0.164
CCGGTGAA	-0.108
ACAACATG	0.142
TAGATCCA	0.11

Sample 3
Target: Myc proto-oncogene protein, bHLH-zipper, MAX partner unstated (MYC, Homo sapiens, UniProt P01106, residues 368-449)
Chain of UniProt P01106 (368-449, looked up): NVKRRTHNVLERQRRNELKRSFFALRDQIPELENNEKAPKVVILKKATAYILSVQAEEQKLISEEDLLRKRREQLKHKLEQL
Method: protein-binding microarray
Form: double-stranded DNA, one strand shown
Medium: in vitro
Tested at: not given
Setting: k-mer, scored over probes, only values ≥0.25
Reading: higher = stronger binding
Oligonucleotide	E-score
GCTCCCCA	0.259
CACGTTTC	0.423
ACGTGTCC	0.42
CATATGCG	0.377
CGCATGTA	0.402
AGCGTGTA	0.322

Further values, each from its own experiment
Molecule	target	test	test system	setting	scale	quantity	result
PhoQ, residues 284 288 289 292 302 303 NLCILV	PhoP, residues 12 14 15 18 19 AQALL (Escherichia coli, UniProt P23836)	Sort-seq, measured: YFP reporter	E. coli	PhoQ-PhoP variant library, added: 10 µM Mg2+	baseline: high Mg2+ state, higher = stronger signaling	fold induction	13.4

A few entries again (sample 2):
Oligonucleotide	E-score
CGCTAACA	0.0236
